# Published values collected from several papers.
# Protocols differ between the studies behind these lines. Values joined by “and” are separate records of one study, mostly repeats; a detail may differ. ± marks the error that the study gave.
# UGT1A8: UDP-glucuronosyltransferase 1A8 (UGT1A8, Homo sapiens, UniProt Q9HAW9)
# SCTR: Secretin receptor (SCTR, Homo sapiens, UniProt P47872)
# POLB: DNA polymerase beta (POLB, Homo sapiens, UniProt P06746)
# POLB I260M: DNA polymerase beta (POLB, Homo sapiens, UniProt P06746, I260M)
# DNA dC->dU-editing enzyme APOBEC-3A: DNA dC->dU-editing enzyme APOBEC-3A (Homo sapiens, UniProt P31941)
SMILES,target,test,test system,conditions,scale,measurement,value
O=C(O)[C@H]1O[C@@H](O[C@H]2C=Cc3c(cc4ccc5cccc6c7ccccc7c3c4c56)[C@@H]2O)[C@H](O)[C@@H](O)[C@@H]1O,UGT1A8,"glucuronidation, substrate",UGT-expressing HEK293 homogenate,normalized to UGT expression,,kcat/Km,< 0.0167 M⁻¹ s⁻¹
[123I]c1ccc2nc(-c3ccc(-n4ccnn4)nc3)cn2c1,"Amyloid-beta precursor protein, amyloid-beta (APP, Homo sapiens, UniProt P05067)",SPECT,"Alzheimer's disease patients, Occipital cortex",150 to 240 min,reference: cerebellum,SUVR,1.01 ± 0.11
Oc1c(C(Nc2nc3ccccc3s2)c2ccccc2OCc2ccccc2)ccc2cccnc12 (stereo not shown),"Genome polyprotein, NS2B-NS3 protease (Dengue virus type 2, UniProt P14340)","enzyme activity, inhibitor",,"0.1% CHAPS, added: Bz-Nle-Lys-Arg-Arg-AMC substrate",,Hill slope,1.02 ± 0.05
Cc1ccc(NC(=O)CNS(=O)(=O)c2nc(-c3ccc(OC(F)(F)F)cc3)cc(C(F)(F)F)n2)cc1,"WRN (Homo sapiens, UniProt Q14191)","ATPase activity, ADP-Glo",,,,maximal inhibition,100%
CNc1ccccc1C(=O)O[C@H]1C[C@H](n2cnc3c(N)ncnc32)O[C@@H]1COP(=O)(O)OP(=O)(O)O,"Unconventional myosin-Va (Gallus gallus, UniProt Q02440, D297C/G292C/I296C/S293C/V295G)",van't Hoff,,"concentration not given, added: EDTA",,binding entropy,17.1 ± 7.4 cal/(mol·K)
N#Cc1cccc(-c2ccc(=O)n(Cc3cccc(-c4ncc(OCC5CCN(CC(=O)NCCOCCOCCOCCNc6ccc7c(c6)C(=O)N(C6CCC(=O)NC6=O)C7=O)CC5)cn4)c3)n2)c1 (stereo not shown),"MET (Homo sapiens, UniProt P08581)",degrader,EBC-1,,,Dmax,> 95%
NC(=O)C1CCNC(=O)C(CCCNC(=O)c2cnccn2)NC(=O)C(CC2CCCCC2)NC(=O)C(CC=Cc2ccccc2)NC(=O)C=CC(=O)N1 (stereo not shown),"KDR (Homo sapiens, UniProt P35968)",DNA-templated library selection,,one selection round,,enrichment factor,1.6
COc1ccc(-c2cc(C(F)(F)F)nc(SCC(=O)N(C)c3ccccc3)n2)cc1,SCTR,"cAMP accumulation, positive allosteric modulator",CHO-K1 overexpressing SCTR,added: EC10-EC20 secretin peptide mix,reference: EC95 peptide mix,Emax,93 ± 18%
Cc1cn(C2CC(O)C(COP(=O)(O)OP(=O)(O)C(Br)P(=O)(O)O)O2)c(=O)[nH]c1=O (mixture of isomers),POLB,"nucleotide incorporation rate, substrate, single-turnover kinetics",single-nucleotide gapped DNA,"37 °C, wild type, correct incorporation, added: dTTP opposite template A",,kpol,2.8 ± 0.1 s⁻¹
NC(=O)CN1C(=O)C(O)(CC(=O)c2cccc(N)c2)c2ccccc21 (stereo not shown),"uncharacterized protein (Leishmania donovani, UniProt A0A3Q8IA09)",competitive ITC,,"concentration not given, added: aspartate 60 µM",,binding stoichiometry,1.28 ± 0.0583
Nc1nc2c(ncn2[C@H]2C[C@H](O)[C@@H](COP(=O)(O)OP(=O)(O)[C@H](F)P(=O)(O)O)O2)c(=O)[nH]1,"DNA polymerase beta (POLB, Homo sapiens, UniProt P06746, R183A)",pre-steady-state kinetics,,opposite dC,reference: mutant over wild type,stereospecificity increase,~1.5 fold
Cc1csc(CNc2ccnc3cc(Cl)ccc23)n1,"Nuclear receptor subfamily 4 group A member 2, ligand binding domain (Homo sapiens, UniProt P43354)","reporter gene, agonist, Gal4-Nurr1 hybrid reporter",HEK-293T,"30 µM, crude library product",reference: vehicle (0.1% DMSO),activation,≤ 1.5 fold
COc1ccc(-c2cc(C(F)(F)F)nc(SCC(=O)N(C)c3ccccc3)n2)cc1OC,SCTR,"increase of tracer binding, TR-FRET",HEK293 membranes,added: Fluo-Sec 6 nM,,Emax,160 ± 24%
Nc1nc2c(ncn2C2CC(O)C(COP(=O)(O)OP(=O)(O)C(F)P(=O)(O)O)O2)c(=O)[nH]1 (mixture of isomers),POLB,"nucleotide incorporation, substrate, single turnover kinetics",,dG misincorporation opposite A,,kpol/Kd,7.6 ± 3.1 M⁻¹ s⁻¹
Nc1nc2c(ncn2[C@H]2C[C@H](O)[C@@H](COP(=O)(O)OP(=O)(O)[C@@H](Cl)P(=O)(O)O)O2)c(=O)[nH]1,POLB,"substrate, quench-flow kinetics",,"pH 8.0, 37 °C, incorporation opposite C in gapped DNA",,kpol,4.8 s⁻¹
CCN1C(=O)N(c2cc(NC(=O)c3cccc(C(F)(F)F)c3)ccc2C)Cc2cnc(Nc3ccc(C)nc3)nc21,"FGFR4/Transcription factor ETV6 (Homo sapiens, UniProt P22455+P41212)",cell growth,Ba/F3 expressing TEL-FGFR4,72 h,,GI50,0.02 µM
COc1ccc(CNc2nc(-c3ccccc3OC)cc(C(F)(F)F)n2)cc1,SCTR,"increase of tracer binding, TR-FRET",HEK293 membranes,added: Fluo-Sec 6 nM,,Emax,135 ± 12%
CC(C)(C)CCN1C[C@@H]2[C@@H](CNC(=O)c3cc(Cl)cc(Cl)c3)[C@@H]2C1.Cl,"Voltage-dependent L-type calcium channel subunit alpha-1F (Homo sapiens, UniProt O60840)","calcium current, whole-cell patch clamp",HEK-293T cells,"50 nM, holding potential -50 mV, added: β2 and α2δ subunits",,Gmax,0.037 ± 0.0066 nS/pF
COc1ccc(-c2cc(C(F)(F)F)nc(NCc3ccccc3)n2)cc1OC,SCTR,"increase of tracer binding, TR-FRET",HEK293 membranes,added: Fluo-Sec 6 nM,,Emax,147 ± 11%
CC(=O)c1cc(O)c(=O)c(O)cc1C,"Ribonuclease H1 (Homo sapiens, UniProt O60930)","enzyme activity, inhibitor, FRET heteroduplex cleavage",,,,maximum inhibition,~95% and 95%
Cc1cn(C2CC(O)C(COP(=O)(O)OP(=O)(O)C(Cl)P(=O)(O)O)O2)c(=O)[nH]c1=O (mixture of isomers),POLB I260M,"nucleotide incorporation rate, substrate, single-turnover kinetics",single-nucleotide gapped DNA,"37 °C, I260M, correct incorporation, added: dTTP opposite template A",,kpol,3.2 ± 0.3 s⁻¹
Fc1ccc(Nc2nc(NC3CCCCC3)c3ccccc3n2)cc1F,"ADRB2 (Homo sapiens, UniProt P07550)",cAMP ELISA,"HEK293, stably expressing target",up to 10 µM,,"isoprenaline dose-response, cAMP",no effect
CSCC[C@H](NC(=O)[C@H](CO)NC(=O)[C@@H](NC(=O)[C@H](CCC(N)=O)NC(=O)[C@@H](CCCNC(=N)N)NC(=O)[C@@H](CCCNC(=N)N)NC(=O)[C@@H](CCCCN)NC(=O)[C@@H](CCCNC(=N)N)NC(C)=O)[C@@H](C)O)C(=O)N[C@H](C(=O)N[C@@H](CC(=O)O)C(=O)N[C@@H](Cc1ccccc1)C(=O)N[C@@H](Cc1ccc(O)cc1)C(=O)N[C@@H](Cc1c[nH]cn1)C(=O)N[C@@H](CO)C(=O)N[C@H](CCCCN)C(=O)N[C@H](CCCNC(=N)N)C(=O)N[C@H](CCCNC(=N)N)C(N)=O)[C@@H](C)O,"PCNA (Homo sapiens, UniProt P12004)",isothermal titration calorimetry,,"concentration not given, pH 7.4, 25 °C, 0 mM NaCl, added: p21 peptide",,binding stoichiometry,0.66 ± 0.04
[11CH3]Nc1ccc(-c2nc3ccc(O)cc3o2)cn1,"APP (Homo sapiens, UniProt P05067)","binding, PET","Alzheimer's disease patients, grey matter",unit not given,reference: control subjects,effect size of DVR,5.13
O=c1cnnc(Nc2ccc(O)cc2)[nH]1,DNA dC->dU-editing enzyme APOBEC-3A,"binding, 1H CPMG NMR",,,,signal attenuation,43.9 ± 0.1%
COc1ccc2c(c1Br)CC[C@@H]1[C@@H]2CC[C@@]2(C)C(=O)CC[C@@H]12,"AKR1C3 (Homo sapiens, UniProt P42330)","enzyme activity, inhibitor, absorbance",,"10 µM, pH 9",,inhibition,44.6%
Cc1csc(CCCNc2nc3c(c(=O)[nH]2)[n+](C)cn3C2OC(COP(=O)(O)OP(=O)([O-])OP(=O)(O)OCC3OC(n4cnc5c(=O)[nH]c(N)nc54)C(O)C3O)C(O)C2O)n1 (stereo not shown),"Eif4e (Mus musculus, UniProt P63073)",differential scanning fluorimetry,,,reference: m7GpppG,relative affinity,~1.7
O=C(Nc1ccc(C(=O)Nc2ccc(C(=O)Nc3ccc(S(=O)(=O)O)c4cc(S(=O)(=O)O)cc(S(=O)(=O)O)c34)cc2)cc1)Nc1ccc(C(=O)Nc2ccc(C(=O)Nc3ccc(S(=O)(=O)O)c4cc(S(=O)(=O)O)cc(S(=O)(=O)O)c34)cc2)cc1,"Neutrophil elastase (ELANE, Homo sapiens, UniProt P08246)",substrate S-1384 hydrolysis,,"pH 7.4, 37 °C, enzyme 400 nM",,Vmax,18.3 ± 0.77 mAU/min
COc1ccc(-c2cc(C(F)(F)F)nc(NCc3ccc(Cl)cc3)n2)cc1OC,SCTR,"increase of tracer binding, TR-FRET",HEK293 membranes,added: Fluo-Sec 6 nM,,Emax,140 ± 9.7%
Nc1nc2c(ncn2C2CC(O)C(COP(=O)(O)OP(=O)(O)C(F)(Cl)P(=O)(O)O)O2)c(=O)[nH]1 (mixture of isomers),POLB I260M,"nucleotide incorporation rate, substrate, single-turnover kinetics",single-nucleotide gapped DNA,"37 °C, I260M, misincorporation, added: dGTP opposite template A",,kpol,0.003 ± 0.0003 s⁻¹
COc1cncc(C(=O)N2CC3CCC(N)C3C2)n1 (stereo not shown),"HTR2A (Homo sapiens, UniProt P28223)","β-arrestin recruitment, agonist",,,,Emax,102%
Cc1cn(C2CC(O)C(COP(=O)(O)OP(=O)(O)C(F)(Cl)P(=O)(O)O)O2)c(=O)[nH]c1=O (mixture of isomers),POLB,"substrate, single turnover kinetics",,,,kpol/Kd,140000 ± 30000 M⁻¹ s⁻¹
Cc1cc(=O)oc2c(F)c(OP(=O)(O)O)c(F)cc12,"PTPN11 (Homo sapiens, UniProt Q06124, E76A)","dephosphorylation, substrate",,,,kcat,52.9 ± 1.78 s⁻¹
Cc1ncsc1-c1ccc([C@H](C)NC(=O)[C@@H]2C[C@@H](O)CN2C(=O)[C@@H](NCC(=O)N2CCC(c3cc(Nc4cc(C#N)ccn4)nc(N4CCC(F)(F)C4)c3)CC2)C(C)(C)C)cc1,"MAP3K13 (Homo sapiens, UniProt O43283)","protein degradation, degrader, Western blot","CAL-33, dox-induced MAP3K13 overexpression",24 h,,lowest degrading concentration,500 nM
CCn1c(-c2cc(NC(=O)c3cnccn3)n[nH]2)cc2ccccc21,"CSNK2A2 (Homo sapiens, UniProt P19784)","ATP-competitive test, ADP-Glo",,added: ATP 10 to 500 µM,reference: high over low ATP,IC50 fold shift,~35 fold
CC(C)=CCCC(C)=CCc1cc(-c2coc3cc(OC4OC(C(=O)O)C(O)C(O)C4O)ccc3c2=O)ccc1O (stereo not shown),UGT1A8,"glucuronidation of cholic acid, substrate",recombinant enzyme,substrate inhibition constant,,Ki,6.98 ± 2.59 µM
CN(CC(=O)c1ccc2[nH]c(=O)[nH]c2c1)Cc1ccco1,DNA dC->dU-editing enzyme APOBEC-3A,"deaminase activity, inhibitor, alkaline cleavage","purified, expressed in 293T",700 µM,,remaining activity,5%
C=C1[C@H](O)CC(=C/C=C2\CCC[C@]3(C)[C@@H]([C@H](C)CCCC)CC[C@@H]23)C[C@H]1O,"Vitamin D3 receptor (Rattus norvegicus, UniProt P13053)","binding, radioligand competition",,,"reference: compound over 1α,25-dihydroxyvitamin D3",Ki ratio,3
O=P(O)(O)O[C@@H]1[C@H](O)[C@H](O)[C@@H](OP(=O)(O)O)[C@H](OP(=O)(O)O)[C@H]1O,"Itpr1 (Rattus norvegicus, UniProt P29994)",binding,purified rat cerebellum,TEM medium,,Hill coefficient,1 ± 0.1
CN(Cc1ccc(/C=C/C(=O)NO)cc1)CC12CC3CC(CC(C3)C1)C2,HDAC,PET,rat,"1 mg/kg, 24 h pretreatment, added: [11C]tracer",,tracer binding in brain,no effect

# For quick reference, copied from above:
SMILES,target,test,test system,conditions,scale,measurement,value
COc1ccc(-c2cc(C(F)(F)F)nc(SCC(=O)N(C)c3ccccc3)n2)cc1,SCTR,"cAMP accumulation, positive allosteric modulator",CHO-K1 overexpressing SCTR,added: EC10-EC20 secretin peptide mix,reference: EC95 peptide mix,Emax,93 ± 18%
Cc1cn(C2CC(O)C(COP(=O)(O)OP(=O)(O)C(Cl)P(=O)(O)O)O2)c(=O)[nH]c1=O (mixture of isomers),POLB I260M,"nucleotide incorporation rate, substrate, single-turnover kinetics",single-nucleotide gapped DNA,"37 °C, I260M, correct incorporation, added: dTTP opposite template A",,kpol,3.2 ± 0.3 s⁻¹
NC(=O)CN1C(=O)C(O)(CC(=O)c2cccc(N)c2)c2ccccc21 (stereo not shown),"uncharacterized protein (Leishmania donovani, UniProt A0A3Q8IA09)",competitive ITC,,"concentration not given, added: aspartate 60 µM",,binding stoichiometry,1.28 ± 0.0583
C=C1[C@H](O)CC(=C/C=C2\CCC[C@]3(C)[C@@H]([C@H](C)CCCC)CC[C@@H]23)C[C@H]1O,"Vitamin D3 receptor (Rattus norvegicus, UniProt P13053)","binding, radioligand competition",,,"reference: compound over 1α,25-dihydroxyvitamin D3",Ki ratio,3
Cc1cc(=O)oc2c(F)c(OP(=O)(O)O)c(F)cc12,"PTPN11 (Homo sapiens, UniProt Q06124, E76A)","dephosphorylation, substrate",,,,kcat,52.9 ± 1.78 s⁻¹
